{"data": "Assay results gathered from unrelated publications", "ADCYAP1R1 del89-109": "Pituitary adenylate cyclase-activating polypeptide type I receptor (ADCYAP1R1, Homo sapiens, UniProt P41586, del89-109)", "sdiA": "Regulatory protein SdiA (sdiA, Escherichia coli, UniProt P07026)", "note": "± gives the spread as reported.", "chain of UniProt P41586 (whole entry, unmodified, looked up)": "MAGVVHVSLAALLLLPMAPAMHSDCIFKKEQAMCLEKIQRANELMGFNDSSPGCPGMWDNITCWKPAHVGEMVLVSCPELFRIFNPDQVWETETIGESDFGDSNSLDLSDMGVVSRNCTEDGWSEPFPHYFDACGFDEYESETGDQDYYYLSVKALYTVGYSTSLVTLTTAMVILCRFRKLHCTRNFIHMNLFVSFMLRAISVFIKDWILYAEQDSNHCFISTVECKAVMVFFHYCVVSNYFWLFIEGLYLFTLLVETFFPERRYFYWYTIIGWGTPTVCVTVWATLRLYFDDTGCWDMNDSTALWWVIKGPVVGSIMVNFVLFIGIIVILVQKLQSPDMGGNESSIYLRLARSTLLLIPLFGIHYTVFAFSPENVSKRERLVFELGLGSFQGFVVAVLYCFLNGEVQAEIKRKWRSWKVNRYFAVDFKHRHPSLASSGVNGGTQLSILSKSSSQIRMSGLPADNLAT", "chain of UniProt P07026 (whole entry, unmodified, looked up)": "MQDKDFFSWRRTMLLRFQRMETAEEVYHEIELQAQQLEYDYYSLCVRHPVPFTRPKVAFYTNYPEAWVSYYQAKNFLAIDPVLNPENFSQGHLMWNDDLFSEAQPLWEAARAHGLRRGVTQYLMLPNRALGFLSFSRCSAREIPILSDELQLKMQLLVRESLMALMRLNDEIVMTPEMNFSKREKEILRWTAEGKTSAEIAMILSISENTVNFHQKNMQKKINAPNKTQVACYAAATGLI", "chain of UniProt Q9UK32 (whole entry, looked up)": "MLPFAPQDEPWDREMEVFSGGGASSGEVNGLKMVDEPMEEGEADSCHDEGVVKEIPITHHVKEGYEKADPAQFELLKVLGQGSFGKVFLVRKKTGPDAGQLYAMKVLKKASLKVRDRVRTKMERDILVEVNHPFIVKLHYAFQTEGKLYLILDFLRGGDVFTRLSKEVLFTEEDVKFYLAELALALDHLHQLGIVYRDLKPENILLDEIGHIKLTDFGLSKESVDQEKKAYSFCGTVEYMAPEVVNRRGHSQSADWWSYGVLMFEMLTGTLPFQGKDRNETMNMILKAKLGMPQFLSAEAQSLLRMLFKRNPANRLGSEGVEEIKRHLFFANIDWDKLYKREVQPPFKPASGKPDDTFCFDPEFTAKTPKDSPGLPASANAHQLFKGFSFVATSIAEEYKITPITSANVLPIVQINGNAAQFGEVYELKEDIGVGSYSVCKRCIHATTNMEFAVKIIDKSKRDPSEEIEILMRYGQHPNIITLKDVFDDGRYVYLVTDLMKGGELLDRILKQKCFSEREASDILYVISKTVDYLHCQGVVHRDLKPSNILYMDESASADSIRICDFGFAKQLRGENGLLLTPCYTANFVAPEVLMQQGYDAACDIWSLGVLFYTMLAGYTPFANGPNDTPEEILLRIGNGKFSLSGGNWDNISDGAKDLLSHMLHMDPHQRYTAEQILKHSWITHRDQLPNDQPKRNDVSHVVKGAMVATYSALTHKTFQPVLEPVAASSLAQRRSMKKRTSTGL", "chain of UniProt P50391 (whole entry, looked up)": "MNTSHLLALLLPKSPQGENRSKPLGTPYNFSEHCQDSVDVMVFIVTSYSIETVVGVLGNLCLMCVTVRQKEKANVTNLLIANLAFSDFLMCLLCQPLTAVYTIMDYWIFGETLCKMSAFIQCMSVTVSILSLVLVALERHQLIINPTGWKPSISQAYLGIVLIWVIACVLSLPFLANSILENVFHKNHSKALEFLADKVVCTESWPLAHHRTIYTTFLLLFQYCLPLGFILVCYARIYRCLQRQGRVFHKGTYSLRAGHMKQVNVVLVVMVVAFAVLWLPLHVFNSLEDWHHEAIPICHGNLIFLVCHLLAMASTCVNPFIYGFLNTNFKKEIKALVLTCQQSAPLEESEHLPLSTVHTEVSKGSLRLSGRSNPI", "chain of UniProt O33336 (whole entry, looked up)": "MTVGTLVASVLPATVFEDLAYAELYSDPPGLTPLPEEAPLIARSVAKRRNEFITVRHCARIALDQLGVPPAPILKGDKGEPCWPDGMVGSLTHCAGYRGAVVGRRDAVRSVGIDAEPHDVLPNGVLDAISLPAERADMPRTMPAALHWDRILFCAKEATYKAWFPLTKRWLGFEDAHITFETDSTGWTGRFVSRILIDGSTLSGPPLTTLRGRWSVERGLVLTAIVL", "chain of UniProt P21554 (whole entry, unmodified, looked up)": "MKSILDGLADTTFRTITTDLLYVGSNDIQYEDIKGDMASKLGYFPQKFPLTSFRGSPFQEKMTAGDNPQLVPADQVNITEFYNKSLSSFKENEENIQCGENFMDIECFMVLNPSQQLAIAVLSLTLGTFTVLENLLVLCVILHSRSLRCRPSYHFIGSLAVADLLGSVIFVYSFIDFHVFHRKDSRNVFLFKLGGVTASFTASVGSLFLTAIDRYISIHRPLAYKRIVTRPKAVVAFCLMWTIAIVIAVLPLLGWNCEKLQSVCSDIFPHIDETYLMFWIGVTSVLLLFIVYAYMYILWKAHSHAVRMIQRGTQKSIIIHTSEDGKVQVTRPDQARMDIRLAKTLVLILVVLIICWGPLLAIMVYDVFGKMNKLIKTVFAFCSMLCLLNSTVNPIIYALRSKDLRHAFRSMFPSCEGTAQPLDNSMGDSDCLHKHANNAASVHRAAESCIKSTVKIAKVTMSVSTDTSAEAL"}
{"SMILES": "CSCC[C@H](NC(=O)[C@H](CCC(N)=O)NC(=O)[C@H](CCCCN)NC(=O)[C@H](CCCNC(=N)N)NC(=O)[C@H](Cc1ccc(O)cc1)NC(=O)[C@H](CCCNC(=N)N)NC(=O)[C@H](CO)NC(=O)[C@H](Cc1ccc(O)cc1)NC(=O)[C@H](CO)NC(=O)[C@H](CC(=O)O)NC(=O)[C@@H](NC(=O)[C@@H](N)Cc1ccccc1)[C@@H](C)O)C(=O)N[C@@H](C)C(=O)N[C@H](C(=O)N[C@@H](CCCCN)C(=O)N[C@@H](CCCCn1cc(C[C@H](NC(=O)CNC(=O)[C@H](CO)NC(=O)[C@H](CCCNC(=N)N)NC(=O)[C@H](CO)NC(=O)[C@H](CC(C)C)NC(=O)[C@H](CC(C)C)NC(=O)CNC(=O)[C@H](C)NC(=O)[C@H](CC(C)C)NC(=O)[C@H](CCCNC(=N)N)NC(=O)[C@H](Cc2c[nH]cn2)NC(=O)[C@@H](NC(=O)[C@@H](N)C(C)C)[C@@H](C)O)C(=O)N[C@H](C(=O)N[C@H](C(=O)N[C@@H](CCCCN)C(=O)N[C@@H](CC(N)=O)C(=O)N[C@@H](CC(N)=O)C(=O)N[C@@H](Cc2ccccc2)C(=O)N[C@H](C(=O)N2CCC[C@H]2C(=O)N[C@H](C(=O)N[C@@H](CC(N)=O)C(=O)N[C@H](C(=O)NCC(=O)N[C@@H](CO)C(=O)N[C@@H](CCCCN)C(=O)N[C@@H](C)C(=O)N[C@@H](Cc2ccccc2)C(N)=O)C(C)C)[C@@H](C)O)C(C)C)C(C)C)C(C)C)nn1)C(=O)N[C@@H](Cc1ccc(O)cc1)C(=O)N[C@@H](CC(C)C)C(=O)N[C@@H](C)C(=O)N[C@@H](C)C(=O)N[C@H](C(=O)N[C@@H](CC(C)C)C(=O)NCC(=O)N[C@@H](CCCCN)C(=O)N[C@@H](CCCNC(=N)N)C(=O)N[C@@H](Cc1ccc(O)cc1)C(=O)N[C@@H](CCCCN)C(=O)N[C@@H](CCC(N)=O)C(=O)N[C@@H](CCCNC(=N)N)C(=O)N[C@H](C(=O)N[C@@H](CCCCN)C(=O)N[C@@H](CC(N)=O)C(=O)N[C@@H](CCCCN)C(N)=O)C(C)C)C(C)C)C(C)C", "target": "ADCYAP1R1 del89-109", "test": "cAMP accumulation, antagonist", "conditions": "together with: PACAP-27", "endpoint": "Kb", "result": "257 nM"}
{"SMILES": "CC(=O)N[C@@H](CCCNC(=N)N)C(=O)N[C@@H](Cc1ccc(O)cc1)C(=O)N[C@H]1CCCNC(=N)NC(=O)NCCCCNC(=O)[C@H](Cc2ccc(O)cc2)NC(=O)[C@H](CCCNC(=N)N)NC(=O)[C@H](CC(C)C)NC1=O", "target": "Neuropeptide Y receptor type 4 (NPY4R, Homo sapiens, UniProt P50391)", "test": "β-arrestin-1 recruitment, antagonist", "system": "HEK293T-ARRB1", "conditions": "together with: 3 nM human pancreatic polypeptide", "endpoint": "Kb", "result": "2920 ± 880 nM"}
{"SMILES": "O=C(N[C@@H]1c2ccccc2C[C@H]1N1CCCC1)c1ccc(-c2ccnc3[nH]ccc23)nc1", "target": "Ribosomal protein S6 kinase alpha-6, N-terminal kinase domain (RPS6KA6, Homo sapiens, UniProt Q9UK32)", "test": "binding, competition with immobilised ligand", "endpoint": "Kd", "result": "1010 nM"}
{"SMILES": "C#CCN(Cc1ccc2nc(C)[nH]c(=O)c2c1)c1ccc(C(=O)NC(CCC(=O)O)C(=O)O)s1 (stereo not drawn)", "target": "4'-phosphopantetheinyl transferase PptT (Mycobacterium tuberculosis, UniProt O33336)", "test": "enzyme activity, inhibitor, FP", "endpoint": "IC50", "result": "49 nM"}
{"SMILES": "CCCCCC(O)CC(=O)N[C@H]1CCOC1=O (stereo partly drawn)", "target": "sdiA", "endpoint": "EC50", "result": "8.95 nM"}
{"SMILES": "CSCC[C@H](NC(=O)[C@H](CCC(N)=O)NC(=O)[C@H](CCCCN)NC(=O)[C@H](CCCNC(=N)N)NC(=O)[C@H](Cc1ccc(O)cc1)NC(=O)[C@H](CCCNC(=N)N)NC(=O)[C@H](CO)NC(=O)[C@H](Cc1ccc(O)cc1)NC(=O)[C@H](CO)NC(=O)[C@H](CC(=O)O)NC(=O)[C@@H](NC(=O)[C@@H](N)Cc1ccccc1)[C@@H](C)O)C(=O)N[C@@H](C)C(=O)N[C@H](C(=O)N[C@@H](CCCCN)C(=O)N[C@@H](CCCCN)C(=O)N[C@@H](Cc1ccc(O)cc1)C(=O)N[C@@H](CC(C)C)C(=O)N[C@@H](C)C(=O)N[C@@H](C)C(=O)N[C@H](C(=O)N[C@@H](CC(C)C)C(=O)NCC(=O)N[C@@H](CCCCN)C(=O)N[C@@H](CCCNC(=N)N)C(=O)N[C@@H](Cc1ccc(O)cc1)C(=O)N[C@@H](CCCCN)C(=O)N[C@@H](CCC(N)=O)C(=O)N[C@@H](CCCNC(=N)N)C(=O)N[C@H](C(=O)N[C@@H](CCCCN)C(=O)N[C@@H](CC(N)=O)C(=O)N[C@@H](CCCCn1cc(C[C@H](NC(=O)CNC(=O)[C@H](CO)NC(=O)[C@H](CCCNC(=N)N)NC(=O)[C@H](CO)NC(=O)[C@H](CC(C)C)NC(=O)[C@H](CC(C)C)NC(=O)CNC(=O)[C@H](C)NC(=O)[C@H](CC(C)C)NC(=O)[C@H](CCCNC(=N)N)NC(=O)[C@H](Cc2c[nH]cn2)NC(=O)[C@@H](NC(=O)[C@@H](N)C(C)C)[C@@H](C)O)C(=O)N[C@H](C(=O)N[C@H](C(=O)N[C@@H](CCCCN)C(=O)N[C@@H](CC(N)=O)C(=O)N[C@@H](CC(N)=O)C(=O)N[C@@H](Cc2ccccc2)C(=O)N[C@H](C(=O)N2CCC[C@H]2C(=O)N[C@H](C(=O)N[C@@H](CC(N)=O)C(=O)N[C@H](C(=O)NCC(=O)N[C@@H](CO)C(=O)N[C@@H](CCCCN)C(=O)N[C@@H](C)C(=O)N[C@@H](Cc2ccccc2)C(N)=O)C(C)C)[C@@H](C)O)C(C)C)C(C)C)C(C)C)nn1)C(N)=O)C(C)C)C(C)C)C(C)C", "target": "ADCYAP1R1 del89-109", "test": "cAMP accumulation, antagonist", "conditions": "together with: PACAP-27", "endpoint": "Kb", "result": "331 nM"}
{"SMILES": "O=C(Cc1cccc(Br)c1)N[C@H]1CCOC1=O", "target": "sdiA", "endpoint": "EC50", "result": "1.7 nM"}
{"SMILES": "CSCC[C@H](NC(=O)[C@H](CCC(N)=O)NC(=O)[C@H](CCCCN)NC(=O)[C@H](CCCNC(=N)N)NC(=O)[C@H](Cc1ccc(O)cc1)NC(=O)[C@H](CCCNC(=N)N)NC(=O)[C@H](CO)NC(=O)[C@H](Cc1ccc(O)cc1)NC(=O)[C@H](CO)NC(=O)[C@H](CC(=O)O)NC(=O)[C@@H](NC(=O)[C@@H](N)Cc1ccccc1)[C@@H](C)O)C(=O)N[C@@H](C)C(=O)N[C@H](C(=O)N[C@@H](CCCCN)C(=O)N[C@@H](CCCCN)C(=O)N[C@@H](Cc1ccc(O)cc1)C(=O)N[C@@H](CC(C)C)C(=O)N[C@@H](C)C(=O)N[C@@H](C)C(=O)N[C@H](C(=O)N[C@@H](CC(C)C)C(=O)NCC(=O)N[C@@H](CCCCN)C(=O)N[C@@H](CCCNC(=N)N)C(=O)N[C@@H](Cc1ccc(O)cc1)C(=O)N[C@@H](CCCCN)C(=O)N[C@@H](CCC(N)=O)C(=O)N[C@@H](CCCCn1cc(C[C@H](NC(=O)CNC(=O)[C@H](CO)NC(=O)[C@H](CCCNC(=N)N)NC(=O)[C@H](CO)NC(=O)[C@H](CC(C)C)NC(=O)[C@H](CC(C)C)NC(=O)CNC(=O)[C@H](C)NC(=O)[C@H](CC(C)C)NC(=O)[C@H](CCCNC(=N)N)NC(=O)[C@H](Cc2c[nH]cn2)NC(=O)[C@@H](NC(=O)[C@@H](N)C(C)C)[C@@H](C)O)C(=O)N[C@H](C(=O)N[C@H](C(=O)N[C@@H](CCCCN)C(=O)N[C@@H](CC(N)=O)C(=O)N[C@@H](CC(N)=O)C(=O)N[C@@H](Cc2ccccc2)C(=O)N[C@H](C(=O)N2CCC[C@H]2C(=O)N[C@H](C(=O)N[C@@H](CC(N)=O)C(=O)N[C@H](C(=O)NCC(=O)N[C@@H](CO)C(=O)N[C@@H](CCCCN)C(=O)N[C@@H](C)C(=O)N[C@@H](Cc2ccccc2)C(N)=O)C(C)C)[C@@H](C)O)C(C)C)C(C)C)C(C)C)nn1)C(=O)N[C@H](C(=O)N[C@@H](CCCCN)C(=O)N[C@@H](CC(N)=O)C(=O)N[C@@H](CCCCN)C(N)=O)C(C)C)C(C)C)C(C)C", "target": "Pituitary adenylate cyclase-activating polypeptide type I receptor (ADCYAP1R1, Homo sapiens, UniProt P41586)", "test": "cAMP accumulation, antagonist", "conditions": "together with: PACAP-27", "endpoint": "Kb", "result": "389 nM"}
{"SMILES": "Cc1ccc2c(C(C[N+](=O)[O-])c3cccs3)c(-c3ccccc3)[nH]c2c1 (stereo not drawn)", "target": "Cannabinoid receptor 1 (CNR1, Homo sapiens, UniProt P21554, V171A)", "test": "G protein activation, agonist, BRET", "endpoint": "EC50", "result": "70 nM"}
{"note": "A few entries again:"}
{"SMILES": "CSCC[C@H](NC(=O)[C@H](CCC(N)=O)NC(=O)[C@H](CCCCN)NC(=O)[C@H](CCCNC(=N)N)NC(=O)[C@H](Cc1ccc(O)cc1)NC(=O)[C@H](CCCNC(=N)N)NC(=O)[C@H](CO)NC(=O)[C@H](Cc1ccc(O)cc1)NC(=O)[C@H](CO)NC(=O)[C@H](CC(=O)O)NC(=O)[C@@H](NC(=O)[C@@H](N)Cc1ccccc1)[C@@H](C)O)C(=O)N[C@@H](C)C(=O)N[C@H](C(=O)N[C@@H](CCCCN)C(=O)N[C@@H](CCCCn1cc(C[C@H](NC(=O)CNC(=O)[C@H](CO)NC(=O)[C@H](CCCNC(=N)N)NC(=O)[C@H](CO)NC(=O)[C@H](CC(C)C)NC(=O)[C@H](CC(C)C)NC(=O)CNC(=O)[C@H](C)NC(=O)[C@H](CC(C)C)NC(=O)[C@H](CCCNC(=N)N)NC(=O)[C@H](Cc2c[nH]cn2)NC(=O)[C@@H](NC(=O)[C@@H](N)C(C)C)[C@@H](C)O)C(=O)N[C@H](C(=O)N[C@H](C(=O)N[C@@H](CCCCN)C(=O)N[C@@H](CC(N)=O)C(=O)N[C@@H](CC(N)=O)C(=O)N[C@@H](Cc2ccccc2)C(=O)N[C@H](C(=O)N2CCC[C@H]2C(=O)N[C@H](C(=O)N[C@@H](CC(N)=O)C(=O)N[C@H](C(=O)NCC(=O)N[C@@H](CO)C(=O)N[C@@H](CCCCN)C(=O)N[C@@H](C)C(=O)N[C@@H](Cc2ccccc2)C(N)=O)C(C)C)[C@@H](C)O)C(C)C)C(C)C)C(C)C)nn1)C(=O)N[C@@H](Cc1ccc(O)cc1)C(=O)N[C@@H](CC(C)C)C(=O)N[C@@H](C)C(=O)N[C@@H](C)C(=O)N[C@H](C(=O)N[C@@H](CC(C)C)C(=O)NCC(=O)N[C@@H](CCCCN)C(=O)N[C@@H](CCCNC(=N)N)C(=O)N[C@@H](Cc1ccc(O)cc1)C(=O)N[C@@H](CCCCN)C(=O)N[C@@H](CCC(N)=O)C(=O)N[C@@H](CCCNC(=N)N)C(=O)N[C@H](C(=O)N[C@@H](CCCCN)C(=O)N[C@@H](CC(N)=O)C(=O)N[C@@H](CCCCN)C(N)=O)C(C)C)C(C)C)C(C)C", "target": "ADCYAP1R1 del89-109", "test": "cAMP accumulation, antagonist", "conditions": "together with: PACAP-27", "endpoint": "Kb", "result": "257 nM"}
